Measured values gathered from unrelated publications.
Parts stem from different laboratories: compare values within a part only. Substitutions count along the parent as printed.
UniProt Q9FX25, sequence (whole entry, looked up): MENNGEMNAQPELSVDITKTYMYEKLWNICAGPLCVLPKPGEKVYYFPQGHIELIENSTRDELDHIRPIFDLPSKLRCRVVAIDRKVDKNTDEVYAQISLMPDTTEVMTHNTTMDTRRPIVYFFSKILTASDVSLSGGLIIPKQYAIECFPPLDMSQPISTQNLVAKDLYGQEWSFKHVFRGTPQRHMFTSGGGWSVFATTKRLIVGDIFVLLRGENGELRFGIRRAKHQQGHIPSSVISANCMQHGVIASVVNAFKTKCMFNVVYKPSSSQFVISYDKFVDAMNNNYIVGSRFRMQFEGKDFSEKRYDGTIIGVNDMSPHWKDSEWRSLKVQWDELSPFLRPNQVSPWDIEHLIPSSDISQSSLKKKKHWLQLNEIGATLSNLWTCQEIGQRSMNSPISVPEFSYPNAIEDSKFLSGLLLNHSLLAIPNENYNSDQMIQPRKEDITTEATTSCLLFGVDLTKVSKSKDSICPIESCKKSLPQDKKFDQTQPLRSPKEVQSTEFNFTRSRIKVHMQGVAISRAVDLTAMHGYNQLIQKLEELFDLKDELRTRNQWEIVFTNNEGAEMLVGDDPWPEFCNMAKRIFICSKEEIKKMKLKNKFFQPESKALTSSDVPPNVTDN
UniProt Q8LAL2, sequence (whole entry, looked up): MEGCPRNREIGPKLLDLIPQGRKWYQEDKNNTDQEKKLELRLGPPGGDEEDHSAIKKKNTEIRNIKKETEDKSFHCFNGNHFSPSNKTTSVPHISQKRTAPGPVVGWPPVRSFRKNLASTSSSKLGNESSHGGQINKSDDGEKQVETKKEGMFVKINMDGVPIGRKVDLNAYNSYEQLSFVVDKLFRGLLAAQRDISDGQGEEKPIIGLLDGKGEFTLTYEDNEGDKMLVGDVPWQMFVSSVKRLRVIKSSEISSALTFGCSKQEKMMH
UniProt Q9FKM7, sequence (whole entry, looked up): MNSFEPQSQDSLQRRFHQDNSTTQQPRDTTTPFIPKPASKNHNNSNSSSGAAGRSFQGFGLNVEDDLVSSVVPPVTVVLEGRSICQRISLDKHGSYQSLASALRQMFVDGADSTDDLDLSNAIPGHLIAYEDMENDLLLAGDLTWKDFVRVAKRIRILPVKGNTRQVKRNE
UniProt Q9ZTX9, sequence (whole entry, looked up): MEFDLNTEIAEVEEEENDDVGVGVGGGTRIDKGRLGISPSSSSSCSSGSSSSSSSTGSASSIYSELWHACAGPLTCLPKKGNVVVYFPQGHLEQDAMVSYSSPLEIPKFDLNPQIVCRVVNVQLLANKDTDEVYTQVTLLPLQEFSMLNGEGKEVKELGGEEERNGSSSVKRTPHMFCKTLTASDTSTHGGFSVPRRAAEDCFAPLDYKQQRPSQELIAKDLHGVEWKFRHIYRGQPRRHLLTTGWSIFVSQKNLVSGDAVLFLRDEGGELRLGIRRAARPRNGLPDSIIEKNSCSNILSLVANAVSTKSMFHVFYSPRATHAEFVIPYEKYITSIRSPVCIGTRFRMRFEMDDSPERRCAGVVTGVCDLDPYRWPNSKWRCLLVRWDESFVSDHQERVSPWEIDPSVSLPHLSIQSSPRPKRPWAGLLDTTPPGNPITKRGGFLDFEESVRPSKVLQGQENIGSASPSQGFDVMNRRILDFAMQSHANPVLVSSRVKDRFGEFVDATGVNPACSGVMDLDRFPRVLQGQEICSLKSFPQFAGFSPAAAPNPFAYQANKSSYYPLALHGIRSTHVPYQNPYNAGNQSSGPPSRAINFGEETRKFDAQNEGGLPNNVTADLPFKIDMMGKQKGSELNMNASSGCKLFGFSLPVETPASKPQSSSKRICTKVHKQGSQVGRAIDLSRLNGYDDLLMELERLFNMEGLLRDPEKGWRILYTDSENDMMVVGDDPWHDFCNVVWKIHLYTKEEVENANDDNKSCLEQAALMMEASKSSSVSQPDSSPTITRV
UniProt P93024, sequence (whole entry, looked up): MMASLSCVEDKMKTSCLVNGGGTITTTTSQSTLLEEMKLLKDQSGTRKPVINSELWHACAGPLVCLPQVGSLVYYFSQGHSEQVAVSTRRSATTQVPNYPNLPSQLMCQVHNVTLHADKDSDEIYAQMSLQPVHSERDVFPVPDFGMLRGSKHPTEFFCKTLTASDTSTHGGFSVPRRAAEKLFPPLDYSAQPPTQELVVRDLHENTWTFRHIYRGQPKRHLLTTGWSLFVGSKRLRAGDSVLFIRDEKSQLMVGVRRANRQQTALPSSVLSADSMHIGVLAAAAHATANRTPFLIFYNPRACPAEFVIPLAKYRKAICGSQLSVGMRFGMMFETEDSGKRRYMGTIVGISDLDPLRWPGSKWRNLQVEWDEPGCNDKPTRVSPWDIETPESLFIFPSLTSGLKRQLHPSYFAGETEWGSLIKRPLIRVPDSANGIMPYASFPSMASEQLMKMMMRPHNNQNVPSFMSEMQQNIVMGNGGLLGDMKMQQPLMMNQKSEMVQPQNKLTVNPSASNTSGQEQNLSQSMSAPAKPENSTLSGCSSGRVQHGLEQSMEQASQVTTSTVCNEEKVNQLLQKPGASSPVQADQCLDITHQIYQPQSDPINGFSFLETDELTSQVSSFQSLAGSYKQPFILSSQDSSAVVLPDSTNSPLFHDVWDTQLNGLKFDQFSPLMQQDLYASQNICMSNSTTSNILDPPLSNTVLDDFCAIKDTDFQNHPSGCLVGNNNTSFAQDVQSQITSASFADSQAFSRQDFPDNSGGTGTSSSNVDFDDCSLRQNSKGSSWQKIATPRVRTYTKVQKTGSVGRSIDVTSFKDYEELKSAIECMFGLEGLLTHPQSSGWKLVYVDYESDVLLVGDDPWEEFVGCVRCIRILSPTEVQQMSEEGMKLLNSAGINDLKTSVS
UniProt Q8H174, sequence (whole entry, looked up): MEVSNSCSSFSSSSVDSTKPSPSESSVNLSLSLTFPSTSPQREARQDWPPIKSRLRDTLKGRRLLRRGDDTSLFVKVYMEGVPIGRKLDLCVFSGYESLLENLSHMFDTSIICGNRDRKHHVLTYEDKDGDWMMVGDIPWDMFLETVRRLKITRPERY
UniProt Q93WC4, sequence (whole entry, looked up): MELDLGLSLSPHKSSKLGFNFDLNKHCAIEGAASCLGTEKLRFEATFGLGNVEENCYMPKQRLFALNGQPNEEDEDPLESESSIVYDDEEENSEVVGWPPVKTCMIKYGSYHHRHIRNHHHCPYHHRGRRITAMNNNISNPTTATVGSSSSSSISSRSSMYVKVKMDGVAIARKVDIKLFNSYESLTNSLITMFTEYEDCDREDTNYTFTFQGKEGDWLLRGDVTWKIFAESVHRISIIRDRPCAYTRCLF

Set 1 — method: EMSA with sequencing; form: double-stranded DNA, one strand shown; matrix: in vitro; tested at: 10 and 20 nM; reference: negative control set to 0; direction: higher = stronger binding; quantity: normalised bound fraction
Target: Hepatocyte nuclear factor 3-alpha (Foxa1, Mus musculus, UniProt P35582, residues 1-468, full length assumed)
Setting: whole designed probe, mean of two concentrations, ends assumed
All sequences stand within: GTGAGCGGTGCCCATTGATGGGGAAC … TTTCACTGGGATCGTGGGGAC
Construct (chain): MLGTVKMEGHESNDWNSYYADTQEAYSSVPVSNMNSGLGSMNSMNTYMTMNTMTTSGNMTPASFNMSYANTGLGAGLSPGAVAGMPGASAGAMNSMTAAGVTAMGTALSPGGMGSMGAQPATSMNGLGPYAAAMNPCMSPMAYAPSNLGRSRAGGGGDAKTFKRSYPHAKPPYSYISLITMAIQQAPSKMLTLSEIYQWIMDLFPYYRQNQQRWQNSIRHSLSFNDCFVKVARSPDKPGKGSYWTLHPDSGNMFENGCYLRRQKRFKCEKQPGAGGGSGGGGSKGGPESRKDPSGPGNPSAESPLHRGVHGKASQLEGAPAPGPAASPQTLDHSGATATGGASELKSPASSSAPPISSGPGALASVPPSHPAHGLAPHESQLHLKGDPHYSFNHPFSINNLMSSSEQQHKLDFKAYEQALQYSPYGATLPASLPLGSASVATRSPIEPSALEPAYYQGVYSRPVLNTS
Strand = ATCTTCCCCCTCTTCCTTGCCCCACCAGCTCACCTTCCCGGGTATATTGGAGATAGGAAATTAATATAAGCCGGCATTCGTTAACCCTCTTCTGGCGCAAACTGCTGTTTGCTCTGGATCTAACATGGTCCTTTGGCGACGCCAGGCTCCGGGAGAGCAAAGCACCGTGTCAGGGCCATGATCCGGGGTGGCC; value = 0.114 ratio
Strand = GGCAGGCCTTGCCTTCTGCACTTACATGTCCCAAGAGGCATCAGCCTGCCCGCTGAAATCCGAAGCCACATAATGTCAACACAGTACTCCTGTGTAAATATCTGGTCCAGGGAAAATGCCTTGAACGCTTGTACAACCAATTTTCTGGCAGGCAGTGAGATGAAAAGGAGAATTAATGCATGCATTAAAATAA; value = 0.4 ratio
Strand = ACTTTTTCTGTCTGTCTCTGCAGATCCTTACAGTGCTCACTTACCTATTCTTTGACTTCAATCTCTTGTTGCTCTCTTTACTCCACATTCCAAAGTAATCTAGCCTTTTTTTTTTTTAATTTCCTTAGAGGCGTATAGTGGAAGAAAGGGAACAAATCTTGCTTAAATTCACCATCTACTAGCTACCATTTCA; value = -0.0813 ratio
Strand = TTTAACAACCTATAAACAGGGCCTCGGTATTGAATTCTTTGTCTTATTTAAGTCAAAAGGAACCAGATTACTTTTTTTATGGTTTTAACAAAGTAAACAGGAGCTGGAAAATATCCAAAACTGTTCAAATCAATGTTGTTTTTTACCAGGCTAGGGCTGTTAATAAATATACCATAAATGAGCTCAGACTTTT; value = 0.236 ratio
Strand = TGAGCGATGGGTCGAGTTGGCTTACTAAATTGTGGTAGAAATGAGTGTTATAGCTGAATTCACTTGGTAATTAGCACTTGCATTTACAGATTATGTAATCTAGCAATAGATTCAGGTTTGCACAGACTTAGTGATAGAATCCGGTTGCTAGACTCTTAGCCCAACAGGCTTTCCATCACACAATGAGAACAAG; value = -0.0313 ratio
Strand = ATCTTCCCCCTCTTCCTTGCCCCACCAGCTCACCTTCCCGGGTTATTTGCAGATAGGAAAATAAATAAAGCCGGCATGATGAATCATGCTTCACGCGCATACTGCCAGAGCAAACAGATCTAACATGGTCCTTTGGCGACGCCAGGCTCCGGGAGAGCAAAGCACCGTGTCAGGGCCATGATCCGGGGTGGCC; value = 0.389 ratio
Strand = ATCCCAGGGCCTCTGGGCCTCCCACTGCACTGTGTCATCTGCCATTTGGTGTTTTCTTGGAGAAGAAGCTCTGTCATCTTCTTACATGAGCAAAGTAAACATCTATGTCTCTCCCACATTGTTGGTCATGTTTTCTGTTACTTGCAGCTGAATGCATTCCTGTGCCATCAATCATGTCCACTTTAGAGATAAA; value = 0.369 ratio
Strand = TATATCTGTAGGTATATATATATACACACAGCAAACAAAGTCTTTTGCTTTAAGTCAGGTTGATGTAATTGTCACTGTTTAGCAAAATTGCTTGTTTACTTTGCATTCAATCTCTTTTCCTTATTACCCCCCTGAAAGTTTTTATTTCTAACAAGACACTTGTATATTAAATCTTTAAATTATGTTTGGTGTT; value = 0.491 ratio

Set 2 — Molecule: B1 (IAA17); method: two-hybrid; direction: higher = firmer interaction; quantity: positive tests
B1: IAA17 (Arabidopsis thaliana, UniProt P93830); chain MMGSVELNLRETELCLGLPGGDTVAPVTGNKRGFSETVDLKLNLNNEPANKEGSTTHDVVTFDSKEKSACPKDPAKPPAKAQVVGWPPVRSYRKNVMVSCQKSSGGPEAAAFVKVSMDGAPYLRKIDLRMYKSYDELSNALSNMFSSFTMGKHGGEEGMIDFMNERKLMDLVNSWDYVPSYEDKDGDWMLVGDVPWPMFVDTCKRLRLMKGSDAIGLAPRAMEKCKSRA
partner = ARF4 660-788 (Arabidopsis thaliana, UniProt Q9ZTX9); how to read = reference: out of 4 tests; value = 2
partner = IAA31 (Arabidopsis thaliana, UniProt Q8H174); how to read = reference: out of 4 tests; value = 4
partner = ARF5 788-902 (Arabidopsis thaliana, UniProt P93024); how to read = reference: out of 2 tests; value = 2
partner = IAA26 (Arabidopsis thaliana, UniProt Q8LAL2); how to read = reference: out of 4 tests; value = 3
partner = IAA29 (Arabidopsis thaliana, UniProt Q93WC4); how to read = reference: out of 4 tests; value = 2
partner = ARF13 (Arabidopsis thaliana, UniProt Q9FX25); how to read = reference: out of 4 tests; value = 0
partner = IAA33 (Arabidopsis thaliana, UniProt Q9FKM7); how to read = reference: out of 4 tests; value = 1

Set 3 — method: RNA Bind-n-Seq; form: RNA; matrix: in vitro; tested at: 20 nM; setting: 6-mer, flanks averaged, single round; together with: 150 mM LiCl; reference: input library; direction: higher = stronger binding; quantity: 6-mer enrichment (R)
Target: TAR DNA-binding protein 43, full length, His tag (TARDBP, Homo sapiens, UniProt Q13148, residues 1-414)
Strand = UAAGAA; value = 1.04
Strand = CGAGGA; value = 0.959
Strand = GCUGCU; value = 0.968
Strand = CAUGUA; value = 0.973
Strand = UCGCUC; value = 0.831
Strand = GGGAUG; value = 1.26
Strand = GUCGCC; value = 0.972
Strand = GGAUUU; value = 0.963

Set 4 — method: RNAcompete; form: RNA; matrix: in vitro; tested at: 20 nM; setting: 7-mer, probes averaged, single round; reference: mean of 7-mers; direction: higher = stronger binding; quantity: 7-mer Z-score
Target: PABPC1L2, full length, GST fusion (mouse, UniProt A0ABA7IW68)
Residues (chain): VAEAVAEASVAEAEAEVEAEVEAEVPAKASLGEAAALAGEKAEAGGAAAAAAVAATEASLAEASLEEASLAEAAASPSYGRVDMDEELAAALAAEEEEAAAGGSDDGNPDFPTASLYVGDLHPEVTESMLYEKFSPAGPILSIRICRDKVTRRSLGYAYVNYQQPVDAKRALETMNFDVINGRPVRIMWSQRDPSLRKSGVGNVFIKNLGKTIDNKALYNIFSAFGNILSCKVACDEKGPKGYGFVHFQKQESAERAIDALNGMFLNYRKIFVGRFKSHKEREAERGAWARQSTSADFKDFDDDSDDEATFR
Strand = UGGUUUG; value = -0.347
Strand = UGUGACC; value = -0.157
Strand = ACCGAUC; value = -0.119
Strand = GACCACG; value = 0.0225
Strand = UUUUUUC; value = -0.24
Strand = UGCUCCU; value = -0.382
Strand = CUCGGGC; value = 0.0116
Strand = AUUCUGC; value = -0.271

Set 5 — target: CCNA1, cyclin fold, Cln2 fusion (human); method: yeast growth competition, sequencing; matrix: yeast; setting: strong parent motif; reference: not given; direction: higher = stronger binding; quantity: normalised enrichment score; starting sequence: viral docking peptide; TSVRRALFTGGSD
Variant = TSVRRALFTMGSD [G10M]; value = 0.668
Variant = TSVRRALFTGSSD [G11S]; value = 1
Variant = THVRRALFTGGSD [S2H]; value = 1.28
Variant = TPVRRALFTGGSD [S2P]; value = 1.03
Variant = TSVRRANFTGGSD [L7N]; value = 0.401
Variant = TSVRDALFTGGSD [R5D]; value = -0.264
Variant = TSVRRAEFTGGSD [L7E]; value = -0.00858
Variant = TSVRRALFTGWSD [G11W]; value = 0.571
Variant = TSVRRALFTAGSD [G10A]; value = 1
Variant = TSERRALFTGGSD [V3E]; value = -0.0353
Variant = TSVRRALFTGGGD [S12G]; value = 0.854
Variant = TSVRRALRTGGSD [F8R]; value = -0.15
Variant = TRVRRALFTGGSD [S2R]; value = 1.19
Variant = TSVRRAGFTGGSD [L7G]; value = -0.0856
Variant = TSVRRALFTGGFD [S12F]; value = 1.05
Variant = TSVRQALFTGGSD [R5Q]; value = 0.221
Variant = TSVRRALFTGGDD [S12D]; value = 1.68
Variant = TSVRRALFTHGSD [G10H]; value = 0.76
Variant = TSVNRALFTGGSD [R4N]; value = 0.29
Variant = TSVRRALFTGQSD [G11Q]; value = 1.23
Variant = TSVRRILFTGGSD [A6I]; value = 0.489
Variant = TSYRRALFTGGSD [V3Y]; value = 0.338
Variant = TSVRMALFTGGSD [R5M]; value = 0.252
Variant = TSVERALFTGGSD [R4E]; value = 0.0417
Variant = TSVRRALFTGPSD [G11P]; value = 1.44

Single results of other studies
Structure (SMILES) = O=C(O)[C@H]1[C@H](Cn2nnc3ccccc3c2=O)CC[C@@H]1C(=O)c1ccc(OCCC2CCOCC2)cc1; target = Sodium-dependent serotonin transporter (SLC6A4, Homo sapiens, UniProt P31645); assay = ligand displacement; setting = 10 µM; quantity = inhibition; value = 13.9%

Some of these lines once more (set 3):
Strand = UAAGAA; value = 1.04
Strand = CGAGGA; value = 0.959
Strand = GCUGCU; value = 0.968
Strand = CAUGUA; value = 0.973
Strand = UCGCUC; value = 0.831
Strand = GGGAUG; value = 1.26
Strand = GUCGCC; value = 0.972
Strand = GGAUUU; value = 0.963
